Results gathered from unrelated publications.
Compare with care: the assays were run in different laboratories. ± marks the error that the study gave.
Method: steady-state kinetics
B1: valA (Streptomyces hygroscopicus, UniProt H2K887); chain MTMTKQSSLSPGSRLYDYTTQDGAAWRVSALKEVSYDVVVQPRLLDPANPALADALSSGTTPARRLIVIDATVRSLYGEQLAAYLAGHDVEFHLCVIDAHESAKVMETVFEVVDAMDAFGVPRRHAPVLAMGGGVLTDIVGLAASLYRRATPYVRIPTTLIGMIDAGIGAKTGVNFREHKNRLGTYHPSSLTLIDPGFLATLDARHLRNGLAEILKVALVKDAELFDLLEGHGASLVEQRMQPGEGGTGGAALTVLRRAVQGMLEELQPNLWEHQLRRLVDFGHSFSPSVEMAALPELLHGEAVCIDMALSSVLAHHRGLLTEAELGRVLDVMRLLHLPVLHPVCTPDLMRAALADTVKHRDGWQHMPLPRGIGDAVFVNDVTQREIEAALLTLAERDRVPRWRALHGAVDMGV
B2: enzyme C424A (Methanosarcina mazei, UniProt Q8PVB1); chain MSEQRSVPLREHLLALKPCRHGGLIQETSETYGIPENEILDFSANFNPLGSPFDYPENGLNFEDIIKKSCGKLLEYPDNRYVEFREAAARFVGLGVTPQSIVPGNGSTEIVRLVVESVIEKGDKVLLPWPTFGEYEMQCRITGAEPVCPSQEEVNTLPDEVLEEAKILFICNPNNPTGKLRTREELKVLAERCREHKTLLYVDEAFIELSDPSQSVADLPAENNYVFVMRSLTKDFAIPGIRMGFGIAPPAMADILNTARLSWNLGAIANNTGIALLNIEGGIDSPYLKKAREMILKEGETLKAKIDRIRGFEAGEVNVNFILVDVSKFMLNSSELTARLAARGVLVRDCVSFHGLGKNYIRVAVRTEKENDRLIAAIGDVITEWGREQAKNELQHVIEKASEEGIGGRKTCEYYPCHFEGQNATFCFCPFYPCENEKTGGKWIQSSRGGRVWSCVDCHLVHKKEIAQKILDCLMHEGDTDELVKVAWKEVMEPIL
B3: DHRS13 (Homo sapiens, UniProt Q6UX07); chain MEALLLGAGLLLGAYVLVYYNLVKAPPCGGMGNLRGRTAVVTGANSGIGKMTALELARRGARVVLACRSQERGEAAAFDLRQESGNNEVIFMALDLASLASVRAFATAFLSSEPRLDILIHNAGISSCGRTREAFNLLLRVNHIGPFLLTHLLLPCLKACAPSRVVVVASAAHCRGRLDFKRLDRPVVGWRQELRAYADTKLANVLFARELANQLEATGVTCYAAHPGPVNSELFLRHVPGWLRPLLRPLAWLVLRAPRGGAQTPLYCALQEGIEPLSGRYFANCHVEEVPPAARDDRAAHRLWEASKRLAGLGPGEDAEPDEDPQSEDSEAPSSLSTPHPEEPTVSQPYPSPQSSPDLSKMTHRIQAKVEPEIQLS
B4: PYCR2 R251C (Homo sapiens, UniProt Q96C36); chain MSVGFIGAGQLAYALARGFTAAGILSAHKIIASSPEMNLPTVSALRKMGVNLTRSNKETVKHSDVLFLAVKPHIIPFILDEIGADVQARHIVVSCAAGVTISSVEKKLMAFQPAPKVIRCMTNTPVVVQEGATVYATGTHALVEDGQLLEQLMSSVGFCTEVEEDLIDAVTGLSGSGPAYAFMALDALADGGVKMGLPRRLAIQLGAQALLGAAKMLLDSEQHPCQLKDNVCSPGGATIHALHFLESGGFCSLLINAVEASCIRTRELQSMADQEKISPAALKKTLLDRVKLESPTVSTLTPSSPGKLLTRSLALGGKKD
B5: enzyme Y24A (Nitrosopumilus maritimus, UniProt A9A5X4); chain MDSQKFDSIIFDCDGVLVDITQSADKTIDKTCRYVLKEFAKIDSITIDHKIIDGFKSSGGFNDEVDLVYAAILSLYTANKLNKKPSEFIYDVISNTDKTGIRSVQSYLESIYDVSEFLSKLGSLGDRHNNPVYSIFDQFFFGPELYGKLFDKQSKFSEEGMISNDKVILSVSLLETLQKEFGKKIAVVTGRGIESIRYSLKDMMDYFDTKNSAFLEDEPRELAKPNPATLIRAIQSMESKNCLYVGDSMEDYMMAKDAAQAGHSTTFCAIVGTSTNPEDRRKLFADSGVEMILESINDIPKVLNLV
B6: NUDT12 (Homo sapiens, UniProt Q9BQG2); chain MSSVKRSLKQEIVTQFHCSAAEGDIAKLTGILSHSPSLLNETSENGWTALMYAARNGHPEIVQFLLEKGCDRSIVNKSRQTALDIAVFWGYKHIANLLATAKGGKKPWFLTNEVEECENYFSKTLLDRKSEKRNNSDWLLAKESHPATVFILFSDLNPLVTLGGNKESFQQPEVRLCQLNYTDIKDYLAQPEKITLIFLGVELEIKDKLLNYAGEVPREEEDGLVAWFALGIDPIAAEEFKQRHENCYFLHPPMPALLQLKEKEAGVVAQARSVLAWHSRYKFCPTCGNATKIEEGGYKRLCLKEDCPSLNGVHNTSYPRVDPVVIMQVIHPDGTKCLLGRQKRFPPGMFTCLAGFIEPGETIEDAVRREVEEESGVKVGHVQYVACQPWPMPSSLMIGCLALAVSTEIKVDKNEIEDARWFTREQVLDVLTKGKQQAFFVPPSRAIAHQLIKHWIRINPNL
B7: enzyme (Coleus scutellarioides, UniProt Q84VU3); chain MASPLLILFSLPLAVVLYHLFYRLRYRIPPGPRPWPVVGNLYDVKPVRFRCFAEWAQLFGPTFSVWFGSTLNVIVSSSELAKEVLKEKDGQLADRHRSRSAVKLSRDGKDLIWADYGPHYVKVRKVCTVVLFSPKRLELLRPIREDEITVMVESIYQDSAASGKSVVIKKYLASMAFHNITRLVFGKRFVNSEGEVDKQGQEFKAIAINGLKLGASLAVSEHIPWLRWMFPLDEDAFTQHGVRMERLTREIMQEHTLARQKTGGAKQHFFDALLTLKDEYDLSEDTIIALLWDMIAAGMDTPAISVEWAMAELVRNPRVQEKVQEELDRVIGHERIMTELDIPNLPYLQCVVKESLRLHPPTPLMLPHRSNADVKIGGYDIPKGSNVHVNVWAIARDPKSWKDPLEFRPERFLEEDVDIKGHDFRLLPFGAGRRVCPGAQLGIDLATSMIGHLLHHFRWTPPAGVRAEDIDMGENPGTVTYMRTPVEAVPTPRLPADLYKRVAVVDI
B8: enzyme S252E/S281E/S285E/S287E (Schizosaccharomyces pombe, UniProt P78804); chain MSTPYEPEFQQAYKEIVGSIESSKLFEVHPELKRVLPIISIPERVLEFRVTWEDDKGNCRVNTGYRVQFNSALGPYKGGLRFHPSVNLSILKFLGFEQIFKNALTGLPMGGGKGGSDFDPKGKSDNEIRRFSQAFMRQLFRYIGPQTDVPAGDIGVTGFVVMHMFGEYKRLRNEYSGVVTGKHMLTGGSNIRPEATGYGVVYYVKHMIEHRTKGAETLKGKRVAISGSGNVAQYAALKCIQEGAIVKSISDEKGVLIAKTAEGLVPEEIHEIMALKEKRAEIADEAELCKKHHYIAGARPWTNVGEIDIALPCATQNEVSGEEAAALIKQGCRYVAEGSNMGSSAEAVEVFEKSRASGEGCWLAPGKAANAGGVAVSGLEMAQNAQFSTWTHAEVDAKLAGIMQNIFEQSTDVASKYCDSGSNNIPSLVDGANIAGFLKVATAMQAVGDWW
B9: aspC A106G/A218G/F210I/I29V/I33V/I68L/I71L/N30D/N64T/S135A/T100S/V136I/V375I (Escherichia coli, UniProt P00509); chain MFENITAAPADPILGLADLFRADERPGKVDLGVGVYKDETGKTPVLTSVKKAEQYLLENETTKTYLGLDGLPEFGRCTQELLFGKGSALINDKRARTAQSPGGTGGLRVAADFLAKNTSVKRVWVSNPSWPNHKAIFNSAGLEVREYAYYDAENHTLDFDALINSLNEAQAGDVVLFHGCCHNPTGIDPTLEQWQTLAQLSVEKGWLPLIDFAYQGFGRGLEEDAEGLRAFAAMHKELIVASSYSKNFGLYNERVGACTLVAADSETVDRAFSQMKAAIRANYSNPPAHGASVVATILSNDALRAIWEQELTDMRQRIQRMRQLFVNTLQEKGANRDFSFIIKQNGMFSFSGLTKEQVLRLREEFGVYAVASGRINVAGMTPDNMAPLCEAIVAVL
B10: enzyme (Pseudomonas poae, UniProt A0A2S9EJ63); chain MSTQHYDYIIVGGGSAGSVLANRLSAQADKRVLLIEAGADTPEHDTPTDILDGLQPWLPRLAGERYFWPGLNILRASEHGDIPREPQLYEQARILGGGSSVNMMVANRGLPRDYDEWARLGADGWDWQGVLPYFRKLERDLDFGHSHPEQHGQDGPIPIARVDSRHWGSFTRASAQALHTQGLNDIVDQNGRFEDGYFAPAVAIEHDQRVSSARAYLNAAVRARPNLSVWADTTVRQLTVKGQRVTGVQAVRDGRTVELAGDEVILAAGALQSPAFLLRAGIGPADQLRDLGIEVIADRPGVGRNLWDHSSIGLSASLHHPQVPSDEPGAAHLLAARVSSGVEPSVPGDLYLGIAPNAALGLASAVLWVNKPSSSGHLRLRSKDPADYPAVEFNLLSDRRDLERLRQGLRLLARVFAHPAVAAFSGPPRLSRFAQASNEGPLLSELLANDAQLERYLRTHVGGVWHASGTCRIGRADDPQAVVDHAGRVHGVQGLRVADASVFPSIPTANTNLPTLMIAEKIAEAILANA
UniProt Q9FMF5, sequence (whole entry, looked up): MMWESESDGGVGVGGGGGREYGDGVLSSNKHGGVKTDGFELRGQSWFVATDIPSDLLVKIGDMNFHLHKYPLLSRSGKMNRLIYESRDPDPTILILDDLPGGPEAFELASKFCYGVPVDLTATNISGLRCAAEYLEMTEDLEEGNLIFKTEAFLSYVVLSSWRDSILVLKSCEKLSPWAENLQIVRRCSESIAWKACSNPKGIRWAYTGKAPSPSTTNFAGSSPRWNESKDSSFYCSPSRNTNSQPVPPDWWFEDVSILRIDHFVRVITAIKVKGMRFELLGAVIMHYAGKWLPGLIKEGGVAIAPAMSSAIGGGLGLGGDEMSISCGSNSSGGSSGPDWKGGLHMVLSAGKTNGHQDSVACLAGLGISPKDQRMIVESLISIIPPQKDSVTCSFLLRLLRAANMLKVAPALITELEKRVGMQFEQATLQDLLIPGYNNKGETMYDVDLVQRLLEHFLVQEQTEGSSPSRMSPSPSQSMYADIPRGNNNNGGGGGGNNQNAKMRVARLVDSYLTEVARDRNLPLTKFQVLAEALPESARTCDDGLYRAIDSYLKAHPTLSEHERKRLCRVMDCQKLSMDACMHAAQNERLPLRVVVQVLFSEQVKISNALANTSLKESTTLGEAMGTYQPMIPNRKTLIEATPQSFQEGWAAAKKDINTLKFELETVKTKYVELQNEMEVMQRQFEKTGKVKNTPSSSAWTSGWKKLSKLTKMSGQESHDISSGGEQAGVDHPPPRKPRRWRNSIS
UniProt O31662, sequence (whole entry, looked up): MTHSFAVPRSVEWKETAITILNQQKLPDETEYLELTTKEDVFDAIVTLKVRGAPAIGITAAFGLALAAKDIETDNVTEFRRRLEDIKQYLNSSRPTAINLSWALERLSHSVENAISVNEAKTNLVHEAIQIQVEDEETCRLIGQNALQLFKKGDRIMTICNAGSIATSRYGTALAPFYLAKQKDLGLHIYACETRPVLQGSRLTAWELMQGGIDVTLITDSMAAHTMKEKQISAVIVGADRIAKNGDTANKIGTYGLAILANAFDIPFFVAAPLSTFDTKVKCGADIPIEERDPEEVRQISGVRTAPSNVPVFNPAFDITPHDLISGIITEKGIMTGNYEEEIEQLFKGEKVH
UniProt B8H080, sequence (whole entry, looked up): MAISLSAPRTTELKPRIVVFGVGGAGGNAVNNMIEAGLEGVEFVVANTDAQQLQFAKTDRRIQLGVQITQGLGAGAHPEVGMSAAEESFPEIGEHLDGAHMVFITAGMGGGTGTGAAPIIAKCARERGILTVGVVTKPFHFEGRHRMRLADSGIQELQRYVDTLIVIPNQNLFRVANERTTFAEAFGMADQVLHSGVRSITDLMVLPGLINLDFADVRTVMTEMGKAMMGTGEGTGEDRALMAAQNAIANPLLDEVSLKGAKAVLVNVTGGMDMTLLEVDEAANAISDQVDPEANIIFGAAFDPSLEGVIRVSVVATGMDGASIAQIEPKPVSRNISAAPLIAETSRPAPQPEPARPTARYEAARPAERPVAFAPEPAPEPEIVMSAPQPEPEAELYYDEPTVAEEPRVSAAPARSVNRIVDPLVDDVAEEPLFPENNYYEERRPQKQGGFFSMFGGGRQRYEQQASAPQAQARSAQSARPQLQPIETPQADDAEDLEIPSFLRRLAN

Substance	substrate	pH	temperature	notes	together with	kcat [s⁻¹]
B1 (valA)	O=C(CO)[C@@H](O)[C@H](O)[C@H](O)[C@H](O)COP(=O)(O)O	pH 7.5	28 °C	–	–	0.01 ± 0.00167
HNL E79H/G176S/H103V/K236M/N104A/T11G (Hevea brasiliensis)	CC(=O)Oc1ccc([N+](=O)[O-])cc1	pH 7.2	22 °C	–	–	0.035 ± 0.00283
B2 (enzyme C424A)	Nc1ncnc2c1ncn2[C@@H]1O[C@H](COP(=O)(O)OP(=O)(O)OP(=O)(O)O)[C@@H](O)[C@H]1O	pH 8.5	25 °C	apparent, anoxic	L-Thr 10 mM	0.003 ± 0.002
enzyme (Parabacteroides distasonis, UniProt A0A7L5EB83)	CC(=O)N[C@H]1[C@H](Oc2ccc([N+](=O)[O-])cc2)O[C@H](CO)[C@@H](O[C@@H]2O[C@H](CO)[C@H](O)[C@H](O)[C@H]2O)[C@@H]1O	pH 6	50 °C	–	–	23.6 ± 0.9
B3 (DHRS13)	CC1=C(/C=C/C(C)=C/C=C/C(C)=C/C=O)C(C)(C)CCC1	pH 7.4	37 °C	–	–	0.097 ± 0.0217
RPT3 (Arabidopsis thaliana, UniProt Q9FMF5)	Nc1nc2c(ncn2[C@@H]2O[C@H](COP(=O)(O)OP(=O)(O)OP(=O)(O)O)[C@@H](O)[C@H]2O)c(=O)[nH]1	pH 7.5	30 °C	–	–	0.056
enzyme (Ectocarpus siliculosus, UniProt D7FYY3)	C=C(OP(=O)(O)O)C(=O)O	pH 5.5	25 °C	–	2 mM ADP	16.5 ± 0.3
B4 (PYCR2 R251C)	NC(=O)C1=CN([C@@H]2O[C@H](COP(=O)(O)OP(=O)(O)OC[C@H]3O[C@@H](n4cnc5c(N)ncnc54)[C@H](OP(=O)(O)O)[C@@H]3O)[C@@H](O)[C@H]2O)C=CC1	pH 7.5	37 °C	apparent, cofactor varied	DL-P5C 5000 µM	1.8 ± 0.1
B5 (enzyme Y24A)	N[C@H](COP(=O)(O)O)Cc1c[nH]cn1	pH 7.8	25 °C	–	–	0.01 ± 0.001
gdh N192S/N97F (Bacillus subtilis)	NC(=O)c1ccc[n+]([C@@H]2O[C@H](COP(=O)(O)OP(=O)(O)OC[C@H]3O[C@@H](n4cnc5c(N)ncnc54)[C@H](O)[C@@H]3O)[C@@H](O)[C@H]2O)c1	pH 7	55 °C	–	–	15.8 ± 0.552
B6 (NUDT12)	Nc1ncnc2c1ncn2[C@@H]1O[C@H](COP(=O)(O)OP(=O)(O)OP(=O)(O)OP(=O)(O)OP(=O)(O)OC[C@H]2O[C@@H](n3cnc4c(N)ncnc43)[C@H](O)[C@@H]2O)[C@@H](O)[C@H]1O	–	–	–	Mg2+	0.011 ± 0.003
B7 (enzyme)	O=C(/C=C/c1ccc(O)cc1)O[C@H](Cc1ccc(O)c(O)c1)C(=O)O	pH 7.5	30 °C	not purified	–	0.006
B8 (enzyme S252E/S281E/S285E/S287E)	NC(=O)c1ccc[n+]([C@@H]2O[C@H](COP(=O)(O)OP(=O)(O)OC[C@H]3O[C@@H](n4cnc5c(N)ncnc54)[C@H](O)[C@@H]3O)[C@@H](O)[C@H]2O)c1	pH 7	30 °C	apparent	–	0.26 ± 0.01
B9	N[C@@H](Cc1ccccc1)C(=O)O	pH 7.5	25 °C	–	PLP 20 µM	150
mtnA (Bacillus subtilis, UniProt O31662)	O=P(O)(O)O[C@H]1O[C@H](CO)[C@@H](O)[C@H]1O	pH 7.5	25 °C	–	–	0.087 ± 0.005
enzyme N248Y/Q325R/R246H/R328K (Arabidopsis thaliana, UniProt O24495)	C[C@@H](O)C(=O)SC[C@H](NC(=O)CC[C@H](N)C(=O)O)C(=O)NCC(=O)O	pH 7.2	25 °C	–	–	17 ± 2
enzyme (UniProt I4BTU9)	N[C@@H](CO)C(=O)O	pH 8	30 °C	–	–	0.0845 ± 0.0011
acmB (Sterolibacterium denitrificans, UniProt A9XWD7)	CC(=O)[C@H]1CC[C@H]2[C@@H]3CCC4=CC(=O)CC[C@]4(C)[C@H]3CC[C@]12C	pH 6.5	–	–	DCPIP 0.1–0.3 mM	21.3
enzyme (Oryza sativa, UniProt Q6ZGQ4)	O=[N+]([O-])c1ccc(O[C@@H]2O[C@@H](CO)[C@H](O)[C@H]2O)cc1	pH 4	40 °C	apparent	–	0.34 ± 0.01
ftsZ (Caulobacter crescentus, UniProt B8H080)	Nc1nc2c(ncn2[C@@H]2O[C@H](COP(=O)(O)OP(=O)(O)OP(=O)(O)O)[C@@H](O)[C@H]2O)c(=O)[nH]1	–	–	–	–	0.0667 ± 0.00833
B10 (enzyme)	COc1cc(CO)ccc1O	pH 8	30 °C	–	–	0.657

Some of these lines once more:
Substance	substrate	pH	temperature	notes	together with	kcat [s⁻¹]
B3 (DHRS13)	CC1=C(/C=C/C(C)=C/C=C/C(C)=C/C=O)C(C)(C)CCC1	pH 7.4	37 °C	–	–	0.097 ± 0.0217
RPT3 (Arabidopsis thaliana, UniProt Q9FMF5)	Nc1nc2c(ncn2[C@@H]2O[C@H](COP(=O)(O)OP(=O)(O)OP(=O)(O)O)[C@@H](O)[C@H]2O)c(=O)[nH]1	pH 7.5	30 °C	–	–	0.056
